Results of several laboratories.
Numbered parts are unrelated; each lists some results of a single study.

Block 1 — method: protein-binding microarray; molecule type: double-stranded DNA, one strand shown; matrix: in vitro; tested at: 2540 nM top; notes: 60-bp whole probe; together with: salmon DNA 0.4 mg/ml; baseline: random background probes; direction: higher = stronger binding; all sequences stand within: GCCTAGCAC … GTCTTGATTCGCTTGACGCTGCTG
Target: Interferon regulatory factor 3, full length, phosphomimetic (IRF3, Homo sapiens, UniProt Q14653, residues 1-427, S386D/S396D/S398D/S402D/T404D/S405D)
Target sequence (chain): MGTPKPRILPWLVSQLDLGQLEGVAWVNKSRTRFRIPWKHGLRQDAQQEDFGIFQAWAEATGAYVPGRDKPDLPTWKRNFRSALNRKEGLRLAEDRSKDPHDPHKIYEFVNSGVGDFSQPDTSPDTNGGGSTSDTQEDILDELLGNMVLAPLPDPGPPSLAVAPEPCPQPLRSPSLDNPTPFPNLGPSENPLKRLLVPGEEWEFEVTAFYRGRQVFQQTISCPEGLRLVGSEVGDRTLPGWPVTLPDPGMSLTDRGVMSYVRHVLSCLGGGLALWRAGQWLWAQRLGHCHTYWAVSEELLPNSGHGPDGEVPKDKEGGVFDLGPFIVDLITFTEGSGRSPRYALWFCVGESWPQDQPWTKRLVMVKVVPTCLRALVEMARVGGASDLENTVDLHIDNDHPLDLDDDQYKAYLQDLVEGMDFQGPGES
| Sequence | fitted relative affinity |
| --- | --- |
| TTAGGATTGGGGTTTCGGTTAGTGCTA | 2.6 z-score |
| TTTATTTTCTGAATGCCCTCGTGCTAG | 2.53 z-score |
| GACGTACTGGGGTTTCGGGACGTGCTA | 0.73 z-score |
| TTAGGTTTCGACCTTCGGTTAGTGCTA | 2.93 z-score |
| TCATCTTTCGATGCTAAAACTGTGCTA | 1.69 z-score |
| TCACGTGACCCTCTCAAACTGTGCTAG | 0.113 z-score |
| TTAGGACTGGACTATCGATTAGTGCTA | -0.345 z-score |
| GACGGTTTCAGACTGGAGACGTGCTAG | 2.58 z-score |
| CCACTTTCAGTTCTCCCTTTGTGCTAG | 6.23 z-score |
| TTAGATTTCGGGTATCCATTAGTGCTA | 1.92 z-score |
| GACGACCTGAGTCTCGAGACGTGCTAG | -0.628 z-score |
| GACGGGATCGGTATCGGGACGTGCTAG | 1.79 z-score |
| GACGATCTCAGACTGGAGTCGTGCTAG | 0.502 z-score |
| GACGCTATCGACTTTCGGGACGTGCTA | 0.4 z-score |

Block 2 — method: protein binding microarray; molecule type: double-stranded DNA, one strand shown; matrix: in vitro; tested at: not given; baseline: not given; direction: higher = stronger binding
Target: Histone acetyltransferase KAT6A, both winged helices, GST fusion (KAT6A, Homo sapiens, UniProt Q92794, residues 1-181)
Notes: 8-mer, flanks averaged, mean of 2 arrays, mostly near background
Construct (chain): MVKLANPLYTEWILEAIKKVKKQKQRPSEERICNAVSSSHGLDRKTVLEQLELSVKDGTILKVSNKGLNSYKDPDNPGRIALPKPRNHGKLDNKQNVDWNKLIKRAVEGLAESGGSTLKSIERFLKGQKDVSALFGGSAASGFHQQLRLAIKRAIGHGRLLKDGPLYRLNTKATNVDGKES
| Sequence | E-score |
| --- | --- |
| ATTATGCG | 0.144 |
| AACCTTGC | -0.0221 |
| ATACTGTG | -0.157 |
| GACCGCCA | 0.0923 |
| AGTGTTTA | 0.131 |
| ATCCTGCA | -0.248 |
| GACAATCA | -0.16 |
| AGAGCACG | 0.0819 |
| AGCGGACT | 0.115 |
| ATACAGCA | 0.0247 |
| GACCGGCA | 0.263 |
| ATAAATCA | -0.0724 |
| GATTTACA | -0.0173 |

Block 3 — method: RNA Bind-n-Seq; molecule type: RNA; matrix: in vitro; tested at: 1 µM; notes: whole 134-nt RNA, ends assumed; together with: 150 mM KCl; baseline: input library; direction: higher = stronger binding
Target: Ras GTPase-activating protein-binding protein 1, C-terminal RGG region (G3BP1, Homo sapiens, UniProt Q13283)
Chain of UniProt Q13283 (whole entry, looked up): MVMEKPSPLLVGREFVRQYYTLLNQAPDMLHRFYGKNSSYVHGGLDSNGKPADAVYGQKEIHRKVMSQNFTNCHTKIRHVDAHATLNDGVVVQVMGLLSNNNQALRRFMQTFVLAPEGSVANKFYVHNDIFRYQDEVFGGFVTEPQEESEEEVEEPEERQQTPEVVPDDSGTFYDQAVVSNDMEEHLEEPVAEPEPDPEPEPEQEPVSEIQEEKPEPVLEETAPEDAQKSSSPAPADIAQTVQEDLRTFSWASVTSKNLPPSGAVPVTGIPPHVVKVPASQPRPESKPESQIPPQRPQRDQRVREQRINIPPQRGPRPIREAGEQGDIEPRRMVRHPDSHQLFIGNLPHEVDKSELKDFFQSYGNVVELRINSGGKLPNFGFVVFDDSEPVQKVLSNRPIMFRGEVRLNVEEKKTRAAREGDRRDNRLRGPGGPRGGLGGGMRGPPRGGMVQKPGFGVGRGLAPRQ
All sequences stand within: GGGAGUUCUACAGUCCGACGAUC … UGGAAUUCUCGGGUGUCAAGG
| Sequence | log2 enrichment |
| --- | --- |
| AACACUCAAACCACCAUCAAGCUUUUCCAGGAAUGCUGUCCUCAUUCCACUGACAGAGUUGUUCUUAUUGGAGGAAAACCCGAUAGGGUU | -0.672 |
| UGGGAGGUGGAUUUUGUUUAUUUUUUUAGCUCAUUUCCAGGAGUGGGAAUUUUUUUUUAAUAUGUGUCAUGAAUAAAGUUGUUUUUGAAA | 3.96 |
| CCUCAAGUCCUGUGCUACACAUCGUAUGUACCGAAUCGGGGCGGGCGGCGGGAAAGUAUUAUGUUACGCCGUUCGGAUCUGCACUUCCAG | -0.667 |
| CAAGUCCUGUGCUACACAUCGUAUGUACCGAAUCGGAAAAAGGUGGAAAAAAAGGAAAGUAUUAUGUUACGCCGUUCGGAUCUGCACUUC | -1.91 |
| GUCCUGUGCUACACAUCGUAUGUACCGAAUCGGGGUUUUUUUGGGGAAAGGGGUGGGGAAAGUAUUAUGUUACGCCGUUCGGAUCUGCAC | 1.66 |
| UUCCUCAAGUCCUGUGCUACACAUCGUAUGUACCGAAUCGGAGGUGGAGGAAAGUAUUAUGUUACGCCGUUCGGAUCUGCACUUCCAGCA | -1.51 |
| CCUGUGCUACACAUCGUAUGUACCGAAUCGGGGAAAAAAAGGAAAAAAAGGGAAAAAAAGGAAAGUAUUAUGUUACGCCGUUCGGAUCUG | -1.71 |

Single results of other studies
| Substance | target or system | test | test system | conditions | scale | quantity | value |
| --- | --- | --- | --- | --- | --- | --- | --- |
| HRRRLLFACSPPPASQ | Saccharomyces cerevisiae | mating pheromone growth arrest, pooled competitive growth deep sequencing | peptide, no Cln2 overexpression | peptide tiling library | direction not given | enrichment score | 0.249 |
| PhoQ, residues 284 288 289 292 302 303 SLANIV | PhoP, residues 12 14 15 18 19 SYFRT (Escherichia coli, UniProt P23836) | Sort-seq, measured: YFP reporter | E. coli | PhoQ-PhoP variant library, together with: 10 µM Mg2+ | baseline: high Mg2+ state, higher = stronger signaling | fold induction | 6.32 |
| PPVIIKYIIINRF | Cln2 (Saccharomyces cerevisiae) | peptide binding, competitive growth sequencing | peptide, Saccharomyces cerevisiae, unfused Cln2 strain | mutational scanning library 2 | direction not given | enrichment score | -1.2 |
| LQVDDDSGDPLNLVKA | human cyclin E1-Cln2 fusion | yeast growth, competitive growth deep sequencing | peptide, Saccharomyces cerevisiae | peptide tiling library | direction not given | enrichment score | 0.499 |

Excerpt of the above (block 1):
| Sequence | fitted relative affinity |
| --- | --- |
| CCACTTTCAGTTCTCCCTTTGTGCTAG | 6.23 z-score |
| TTAGATTTCGGGTATCCATTAGTGCTA | 1.92 z-score |
| GACGACCTGAGTCTCGAGACGTGCTAG | -0.628 z-score |
| GACGGGATCGGTATCGGGACGTGCTAG | 1.79 z-score |
| GACGATCTCAGACTGGAGTCGTGCTAG | 0.502 z-score |
| GACGCTATCGACTTTCGGGACGTGCTA | 0.4 z-score |
